Results pooled from the literature.
A part holds a random share of what one study measured.

Series 1
Target: Interferon regulatory factor 7, full length, phosphomimetic (IRF7, Homo sapiens, UniProt Q92985, residues 1-503, S471D/S472D/S475D/S476D/S477D/S483D/S484D/S487D)
Chain of UniProt Q92985 (whole entry, unmodified, looked up): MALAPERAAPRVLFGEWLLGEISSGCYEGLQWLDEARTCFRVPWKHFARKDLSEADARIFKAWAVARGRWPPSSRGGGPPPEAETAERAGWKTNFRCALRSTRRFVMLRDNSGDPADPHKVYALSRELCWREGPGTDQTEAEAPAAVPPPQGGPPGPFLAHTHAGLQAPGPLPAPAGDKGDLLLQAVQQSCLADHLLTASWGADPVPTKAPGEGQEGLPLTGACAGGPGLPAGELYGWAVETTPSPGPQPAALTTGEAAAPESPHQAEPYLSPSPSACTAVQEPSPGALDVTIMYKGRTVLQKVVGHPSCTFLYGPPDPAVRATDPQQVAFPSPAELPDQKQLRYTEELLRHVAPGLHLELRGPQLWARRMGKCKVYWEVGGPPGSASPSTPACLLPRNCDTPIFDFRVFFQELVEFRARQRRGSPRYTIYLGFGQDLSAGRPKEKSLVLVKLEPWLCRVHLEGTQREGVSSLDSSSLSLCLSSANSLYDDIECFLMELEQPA
Method: protein-binding microarray
Molecule type: double-stranded DNA, one strand shown
Medium: in vitro
Tested at: 2200 nM top
Setting: 60-bp whole probe
Together with: salmon DNA 0.4 mg/ml
Relative to: random background probes
Direction: higher = stronger binding
All sequences stand within: GCCTAGCAC … GTCTTGATTCGCTTGACGCTGCTG
| Oligonucleotide | fitted relative affinity |
| --- | --- |
| TCATTTATACCTTAGGTACTGTGCTAG | 0.765 z-score |
| TTAGCACTGGGGTTTCGGTTAGTGCTA | 2.99 z-score |
| GACGCTCTCAGTCTCGAGACGTGCTAG | 0.643 z-score |
| TCAACTTTAACTTATTCTACTGTGCTA | 0.417 z-score |
| GACGAACTAGGGTTTCGAGACGTGCTA | 0.674 z-score |
| TGTGGGCGTAGGCCCGGAGCGTGCTAG | -0.895 z-score |
| TTAGGTCTCGGTATCGGTAAGTGCTAG | 0.636 z-score |
| TTAGGTCTGGACTTTCGGTTAGTGCTA | 4.87 z-score |
| AACGATCTCAGTATCGAGACGTGCTAG | -0.0417 z-score |
| GACTGACTGGGACTGGGGACGTGCTAG | -0.745 z-score |
| GACGGTTTCGGGAATGGGGACGTGCTA | 2.87 z-score |
| GACGAGCTCAGACTGGAGACGTGCTAG | -0.536 z-score |
| TTAGATATCAGACTGGCTTAGTGCTAG | -0.313 z-score |
| GACGGTATCGGTCTCGAGACGTGCTAG | 0.174 z-score |
| TCATATATATTATATATTACTGTGCTA | 0.462 z-score |
| GACGGTATCGGCATCGGGACGTGCTAG | -0.43 z-score |
| TCAGCTCTGCGGTTCAGACTGTGCTAG | 0.149 z-score |
| TTAGGTATCGACTATCGGATAGTGCTA | 0.338 z-score |
| GCCGGTATCGGTTTCGGGACGTGCTAG | 4.4 z-score |

Series 2
Target: Histone acetyltransferase KAT6A, winged helix 1, GST fusion (KAT6A, Homo sapiens, UniProt Q92794, residues 1-85)
Method: protein binding microarray
Molecule type: double-stranded DNA, one strand shown
Medium: in vitro
Tested at: not given
Setting: 8-mer, flanks averaged, mean of 2 arrays, mostly near background
Relative to: not given
Direction: higher = stronger binding
Construct (chain): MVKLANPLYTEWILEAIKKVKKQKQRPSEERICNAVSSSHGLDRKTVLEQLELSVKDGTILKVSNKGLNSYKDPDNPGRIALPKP
| Oligonucleotide | E-score |
| --- | --- |
| AGCCCCGC | 0.232 |
| AAGCACGT | -0.252 |
| CAAGCCAG | -0.326 |
| GAGAACTA | -0.13 |
| CGACTCAG | -0.141 |
| ATCCAAGC | -0.215 |
| CTCATAAC | -0.146 |
| ACAACCGT | -0.00222 |
| GAAAACCC | 0.0611 |
| CTTCAATC | -0.0492 |
| AAGGTGCG | 0.171 |
| GCATCATA | -0.0487 |
| ATGCCGTC | 0.381 |
| CAGTTCCA | -0.208 |
| CGGCTGTA | 0.236 |
| ACTGGGCC | -0.0866 |
| ATTCAGAA | -0.153 |
| CATATCCG | 0.115 |
| CACACGTA | -0.232 |
| GCGTCCAC | 0.169 |
| TCCTGAAA | -0.0957 |
| AATGGAGT | -0.119 |

Series 3
Target: TAR DNA-binding protein 43, full length, His tag (TARDBP, Homo sapiens, UniProt Q13148, residues 1-414)
Method: RNA Bind-n-Seq
Molecule type: RNA
Medium: in vitro
Tested at: 20 nM
Setting: 6-mer, flanks averaged, single round
Together with: 150 mM LiCl
Relative to: input library
Direction: higher = stronger binding
| Oligonucleotide | 6-mer enrichment (R) |
| --- | --- |
| GCCAGA | 0.896 |
| AUUGCG | 0.99 |
| CACACC | 0.964 |
| GUGUGG | 2.2 |
| CCAGAG | 0.921 |
| GUUUUU | 1.57 |
| UUUUAG | 1.18 |
| CUGACC | 0.882 |
| GUUCGA | 0.917 |
| UUUCUA | 1.01 |
| GUACCU | 0.899 |
| GUCACG | 0.894 |
| ACCUGG | 0.876 |
| GACUCC | 0.968 |
| CGCAAC | 0.861 |
| CCAGCA | 0.912 |
| AAACGG | 0.837 |
| UUCUUG | 1.05 |
| UCCAUC | 0.881 |

Series 4
Target: RNA binding protein fox-1 homolog 2, RRM domain, GST-SBP tag (RBFOX2, Homo sapiens, UniProt O43251-10, residues 100-194)
Method: RNA Bind-n-Seq
Molecule type: RNA
Medium: in vitro
Tested at: 365 nM
Setting: natural RNA segment, single round, ends assumed
Relative to: no-protein control
Direction: higher = stronger binding
Residues (chain): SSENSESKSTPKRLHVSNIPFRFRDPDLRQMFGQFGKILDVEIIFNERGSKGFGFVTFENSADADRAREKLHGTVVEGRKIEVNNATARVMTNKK
| Oligonucleotide | RBNS enrichment (R) |
| --- | --- |
| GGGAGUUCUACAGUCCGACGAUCCUGCAGUGAGAUCCCAGGAAGCUGGCACAUCUUGGAAGGUCCGUCCUGCUCGGCUUUUCGCUUGAACAUUCCCUUGAUCUCAUCAGUUCUGAGCGGGUCAUGGGGCAACAUGGAAUUCUCGGGUGCCAA | 0.272 |
| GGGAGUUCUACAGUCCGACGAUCUGGGAUGCUGUGUCCCAAGGAAUUUCUUUUCACCUCUUGGUUGGGCUGGAGGGAAAAGGAGUGGCUCCUAGAGUCCUGGGGGUCACCCCAGGGCUUUUGCUGACUCUGGGUGGAAUUCUCGGGUGCCAA | 0.527 |
| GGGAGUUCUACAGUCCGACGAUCGGAGAGAAGUUUGAAGCACAACUCCCUUAAGGUCUCCAAACCAGACGGUGACGCCUGCGGGACCAUCUGGGGCACCUGCUUCCACCCGUCUCUCUGCCCACUCGGGUCUGUGGAAUUCUCGGGUGCCAA | 0.191 |
| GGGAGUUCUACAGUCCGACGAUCGUGCCCUAGCUUUUCUUGCAACCAGAGUAUUUUUGUACAGAUUUGCUUUCUCUUACAAAAAGAAAAAAAAAAUCCUGUUGUAUUAACAUUUAAAAACAGAAUUGUGUUAUUGGAAUUCUCGGGUGCCAA | 0.557 |
| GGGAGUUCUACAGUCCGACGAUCCAAUAACAGAAACACUCCCAGGGACUCUGGGGAGAGGCUGAGGACAAAUACCUGCUGUCACUCCAGAGACAUUUUUUUUAGCAAUAAAAUUGAGUGUCAACUAUUUAAUCUGGAAUUCUCGGGUGCCAA | 0.384 |
| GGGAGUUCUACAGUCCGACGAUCGGUUUCCUCAUCUGUCAUGUCGAUGAUUAUAUAUGGAUACAUUUACAAAAAUAAAAAGCGGGAAUUUUCCCUUCGCUUGAAUAUUAUCCCUGUAUAUUGCAUGAAUGAGAUGGAAUUCUCGGGUGCCAA | 1.31 |
| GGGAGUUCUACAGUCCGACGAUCAAUAACUUAAUGUUUUGGACAUAUUUUGUCUACUUUUGAGAAUUAUUUUUAAUAUGUAAAUUCUCUCAAAAGGGUCAGGCACCUAGUUAUUAUUUUUUAAUGAUUAUGUGUGGAAUUCUCGGGUGCCAA | 0.648 |
| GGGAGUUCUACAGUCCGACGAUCAGUGACUCCAGCCACCUGAGAGCGCCCAGGAGCACCAGGGGGGGCCAGAUGCGCUUCCUGAGCUCUUGGAUCAGUGCGCUGAAGGGCCGCACUUACAAGUGCCUGUCUGGUGGAAUUCUCGGGUGCCAA | 0.25 |

Series 5
Target: Centromere-binding protein 1, full length, His-tagged (CBF1, Saccharomyces cerevisiae, UniProt P17106, residues 1-351)
Chain of UniProt P17106 (whole entry, looked up): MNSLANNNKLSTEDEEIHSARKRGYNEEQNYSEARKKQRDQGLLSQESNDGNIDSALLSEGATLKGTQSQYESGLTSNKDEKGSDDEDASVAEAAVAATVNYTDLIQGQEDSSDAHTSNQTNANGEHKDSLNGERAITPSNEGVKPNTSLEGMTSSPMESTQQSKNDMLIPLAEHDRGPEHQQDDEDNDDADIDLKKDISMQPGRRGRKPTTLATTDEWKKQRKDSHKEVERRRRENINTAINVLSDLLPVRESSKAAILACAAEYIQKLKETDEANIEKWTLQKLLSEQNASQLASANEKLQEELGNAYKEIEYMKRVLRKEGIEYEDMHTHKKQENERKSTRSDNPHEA
Method: competition protein-binding microarray
Molecule type: double-stranded DNA, one strand shown
Medium: in vitro
Tested at: 2 µM
Setting: whole 60-bp probe, lowest competitor level
Together with: Pho4 competitor, 0.05 µM
Direction: higher = stronger binding
| Oligonucleotide | fluorescence intensity [a.u.] |
| --- | --- |
| TGAAAATACCATTTGGGAAGGTAACAAAATCATACAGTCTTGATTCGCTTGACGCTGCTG | 68.6 |
| CTTTCCCGATCTTGCAAGGTGGGTGTAGCACATTTGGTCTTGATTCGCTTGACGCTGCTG | 72.6 |
| CAGGCTGGTCGACCTCACGGGCGCTGATCGCGGCAAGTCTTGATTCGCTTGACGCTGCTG | 55.5 |
| TTGTCGCTCGAAGGACACGTGTACTCATAATAACCCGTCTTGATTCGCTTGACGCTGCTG | 1430 |
| CACCTATCATCAGCCAACGTGACGGCCGCGATGCCTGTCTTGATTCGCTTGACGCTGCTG | 204 |
| CGTCCTAGTGATTGTCGCGTGGGTGCCATGAGGAAGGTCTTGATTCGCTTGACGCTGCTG | 109 |
| TCAAGAAGGCAGAGATACGTGTGGATTTTGCAGACAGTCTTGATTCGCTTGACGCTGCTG | 75.4 |
| CTTTCCCGATCTTGTCACTTGACTTTAGCACATTTGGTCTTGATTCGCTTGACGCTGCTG | 165 |
| CAGACTACTAACCATCACGTGATGGTTCTTTTCACTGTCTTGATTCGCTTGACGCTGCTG | 11300 |
| TCCAGAAGAACCCGTCACGTTTTGGATTGGTTTTTGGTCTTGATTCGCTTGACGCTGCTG | 503 |
| TGCGCAACAACTTGGCCTGTGGGTGTATGTCTAGAAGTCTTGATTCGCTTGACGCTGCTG | 59.5 |
| CTAACGAAGGTTTGGGAGGTGGGTGACAAGCCAAGTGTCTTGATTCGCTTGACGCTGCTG | 68.1 |
| CTGTGTCCTGTGGTAGACCCACTTGTTTTACCGCAGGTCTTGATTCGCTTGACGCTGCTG | 84.5 |
| CTTTCCCGATCTTTTCACGTGTCTTTAGCACATTTGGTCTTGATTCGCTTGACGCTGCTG | 1040 |
| CGTCCTAGTGATTGCCGCGTGGGTGCCATGAGGAAGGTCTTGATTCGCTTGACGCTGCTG | 92.3 |
| AGTTGGCGATCAAAGCACGTGATGGGTTTTCCAAATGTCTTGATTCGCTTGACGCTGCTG | 6860 |
| ACTAGTGGCGACACTCAGGTGGTCCTCGGTGCCTTAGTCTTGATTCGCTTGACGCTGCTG | 58.3 |
| AAACCCGGGCTGAAATCCGTGCAATGCATCAAATTTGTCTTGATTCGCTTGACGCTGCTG | 68.7 |
| AGCAACGTTTAGTGAACCGTGACAAGTTTGGCCAGCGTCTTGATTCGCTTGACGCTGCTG | 118 |

A few entries again (series 1):
| Oligonucleotide | fitted relative affinity |
| --- | --- |
| TTAGATATCAGACTGGCTTAGTGCTAG | -0.313 z-score |
| GACGGTATCGGTCTCGAGACGTGCTAG | 0.174 z-score |
| TCATATATATTATATATTACTGTGCTA | 0.462 z-score |
| GACGGTATCGGCATCGGGACGTGCTAG | -0.43 z-score |
| TCAGCTCTGCGGTTCAGACTGTGCTAG | 0.149 z-score |
